Measured values gathered from unrelated publications.
Each line is one published result; not all experiments were run side by side. ± marks the error that the study gave.
Sequence of UniProt P49116 (whole entry, looked up): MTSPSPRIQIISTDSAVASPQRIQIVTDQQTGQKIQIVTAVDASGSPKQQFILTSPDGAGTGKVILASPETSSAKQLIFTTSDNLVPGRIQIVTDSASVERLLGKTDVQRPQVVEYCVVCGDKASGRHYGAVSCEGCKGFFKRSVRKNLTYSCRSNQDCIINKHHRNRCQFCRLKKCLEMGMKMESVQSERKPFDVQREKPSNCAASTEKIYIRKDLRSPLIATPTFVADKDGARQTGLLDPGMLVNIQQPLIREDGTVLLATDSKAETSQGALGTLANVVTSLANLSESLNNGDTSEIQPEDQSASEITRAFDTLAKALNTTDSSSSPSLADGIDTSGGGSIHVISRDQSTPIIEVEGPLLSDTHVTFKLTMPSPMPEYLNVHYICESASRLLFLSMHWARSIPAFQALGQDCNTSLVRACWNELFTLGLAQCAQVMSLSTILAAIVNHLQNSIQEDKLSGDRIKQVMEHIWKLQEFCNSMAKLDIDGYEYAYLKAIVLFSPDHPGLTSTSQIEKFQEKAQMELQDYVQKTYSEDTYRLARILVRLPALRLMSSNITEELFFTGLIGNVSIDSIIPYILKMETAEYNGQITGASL

| SMILES | tested on | test | system | setting | scale | endpoint | value |
| --- | --- | --- | --- | --- | --- | --- | --- |
| O=C(Nc1cnccc1Cl)N1CCN(Cc2ccc3c(c2)OC(F)(F)O3)CC1 | – | – | human, plasma | 2.5 mg, 24 h post dose day 1 | – | plasma concentration | not detected |
| COC(=O)C(c1ccccc1Cl)N1CCC(SCC(=O)c2cccc(OC)c2)C(=CC(=O)O)C1 (stereo not shown) | – | – | cat, plasma | dose not given, day 5, added: clopidogrel plus omeprazole | relative to: clopidogrel alone | plasma concentration | no effect |
| O=C(O)c1ccc(O)c(O)c1O | – | – | human plasma | mean, both sexes | – | plasma concentration | 134 nM |
| CCCC(CCC)C(=O)O | OCI-Ly1 | – | – | 0.1 µM, 120 h | – | viability | 185% |
| O=C1CCc2ccc(OCCCCN3CCN(c4cccc(Cl)c4Cl)CC3)cc2N1 | – | – | patients, plasma, steady state | oral or long-acting depot injection, dose not given, CYP2D6 pPM, median | – | plasma concentration | 167 ng/mL |
| C[C@@H]1CCO[C@H]2Cn3cc(C(=O)NCc4ccc(F)cc4F)c(=O)c(O)c3C(=O)N12 | – | population PK, post-hoc | infants aged ≥1 months, 3 to <6 kg, plasma | oral, 4.8 mg granules, 24 h, steady state, geometric mean | – | plasma concentration | 370 ng/mL |
| O=S(=O)(O)Oc1c(O)cccc1O | – | – | human plasma | mean | – | plasma concentration | 2040 nM |
| C[C@H](CCC(=O)NCC(=O)O)[C@H]1CC[C@H]2[C@@H]3CC[C@@H]4C[C@H](O)CC[C@]4(C)[C@H]3C[C@H](O)[C@]12C | – | – | men, T/T genotype, plasma | dose not given, geometric mean | – | plasma concentration | 137 ng/mL |
| COc1ccccc1OCC(O)CN1CCN(CC(=O)Nc2c(C)cccc2C)CC1 (stereo not shown) | – | – | human, plasma | oral, 12 mg/kg/day every 12 h, 2 h post-dose | – | plasma concentration | 573 ng/mL |
| C[C@H](CCC(=O)NCC(=O)O)[C@H]1CC[C@H]2[C@@H]3[C@H](O)C[C@@H]4C[C@H](O)CC[C@]4(C)[C@H]3CC[C@]12C | – | – | men, T/T genotype, plasma | dose not given, geometric mean | – | plasma concentration | 443 ng/mL |
| O=C(O)[C@H](c1ccccc1Cl)N1CCc2sccc2C1 | – | – | cat, plasma | dose not given, day 10, added: clopidogrel plus omeprazole | relative to: clopidogrel alone | plasma concentration | decreased |
| COc1ccc(C=CC(=O)O)cc1O[C@@H]1O[C@H](C(=O)O)[C@@H](O)[C@H](O)[C@H]1O | – | – | human plasma | mean | – | plasma concentration | 4060 nM |
| CC(C)C[C@H](NC(=O)[C@@H](Cc1c[nH]c2ccccc12)NC(=O)[C@H](Cc1ccc(O)cc1)NC(=O)[C@H](CO)NC(=O)[C@H](Cc1c[nH]c2ccccc12)NC(=O)[C@H](Cc1c[nH]cn1)NC(=O)[C@@H]1CCC(=O)N1)C(=O)N[C@@H](CCCNC(=N)N)C(=O)N1CCC[C@H]1C(=O)NCC(N)=O | – | – | Chinese girls, precocious puberty, plasma | intramuscular, 22.5 mg, 4320 h, pre-dose second injection, mean | – | plasma concentration | 0.626 ng/mL |
| CCN1CCCC1CNC(=O)c1cc(S(=O)(=O)CC)c(N)cc1OC (stereo not shown) | Nuclear receptor subfamily 2 group C member 2, ligand-binding domain (Homo sapiens, UniProt P49116) | SPR imaging | – | – | – | Kd | 40 pM |
| O=C(O)/C=C/c1cccc(O)c1 | – | – | human plasma | mean | – | plasma concentration | 1830 nM |
| CS(=O)(=O)n1cc2c(n1)CN([C@H]1CO[C@H](c3cc(F)ccc3F)[C@@H](N)C1)C2 | – | – | healthy Japanese men, plasma | oral, 10 mg, 168 h, fed, single dose | – | plasma concentration | 9.16 nM |
| Nc1ncn([C@H]2C[C@H](O)[C@@H](CO)O2)c(=O)n1 | OCI-Ly1 | – | – | 0.1 µM, 120 h | – | viability | 41.6% |
| O=C(O)c1cccc(O)c1 | – | – | human plasma | median, both sexes | – | plasma concentration | 1740 nM |
| CC(C)C[C@H](NC(=O)C[C@H](O)[C@H](CC(C)C)NC(=O)[C@H](Cc1c[nH]cn1)NC(=O)CNC(=O)[C@@H](NC(=O)[C@H](C)NC(=O)[C@H](Cc1c[nH]c2ccccc12)NC(=O)[C@H](CCC(N)=O)NC(=O)[C@@H](Cc1ccccc1)NC(=O)COCCOCCNC(=O)CCC(C(=O)O)N1CCN(CC(=O)O)CCN(CC(=O)O)CC1)C(C)C)C(N)=O (stereo partly shown) [lutetium-177 labelled] | – | – | female BALB/c nu/nu mice, intestines | intravenous, 50 pmol, 1 h | – | tissue uptake | 4 ± 3 %ID/g |
| O=C(O)[C@H]1O[C@@H](Oc2ccc3c(c2)OC[C@H](c2ccc(O)cc2)C3)[C@H](O)[C@@H](O)[C@@H]1O | – | – | human plasma | median | – | plasma concentration | 716 nM |
| CCn1c(C(=O)N(C2CC2)C2CC2)cc2c3c(ncn3C)c(Nc3cc(C)n(C)n3)nc21 | – | – | cancer patients | oral, 200 mg single dose, day 1, 0.5 h | – | plasma concentration | 325 ng/mL |
| CC1(C)CCC(CN2CCN(c3ccc(C(=O)NS(=O)(=O)c4ccc(NCC5CCOCC5)c([N+](=O)[O-])c4)c(Oc4cnc5[nH]ccc5c4)c3)CC2)=C(c2ccc(Cl)cc2)C1 | – | – | human, plasma | oral, 200 mg/day | – | plasma concentration | 1700 ± 81.4 nM |

Excerpt of the above:
| SMILES | tested on | test | system | setting | scale | endpoint | value |
| --- | --- | --- | --- | --- | --- | --- | --- |
| C[C@H](CCC(=O)NCC(=O)O)[C@H]1CC[C@H]2[C@@H]3CC[C@@H]4C[C@H](O)CC[C@]4(C)[C@H]3C[C@H](O)[C@]12C | – | – | men, T/T genotype, plasma | dose not given, geometric mean | – | plasma concentration | 137 ng/mL |
| CCN1CCCC1CNC(=O)c1cc(S(=O)(=O)CC)c(N)cc1OC (stereo not shown) | Nuclear receptor subfamily 2 group C member 2, ligand-binding domain (Homo sapiens, UniProt P49116) | SPR imaging | – | – | – | Kd | 40 pM |
| O=C(O)[C@H](c1ccccc1Cl)N1CCc2sccc2C1 | – | – | cat, plasma | dose not given, day 10, added: clopidogrel plus omeprazole | relative to: clopidogrel alone | plasma concentration | decreased |
